{"data": "Published values pooled from the literature", "cell line": "MCF7", "note": "Lines come from different studies, so protocols differ. Numbers after ± are the reported error."}
{"Structure (SMILES)": "CCC(=CCc1c(O)cc2c(c1O)C(=O)CC(c1ccc(OC)c(O)c1)O2)CC (stereo not drawn)", "read-out": "cytotoxicity", "method": "MTT", "concentration": "1.255 µM", "time": "48 h", "measurement": "growth inhibition", "result": "3.55%"}
{"Structure (SMILES)": "CC[C@@H]([C@H](C)c1ccc(O)cc1)[C@H](CC)c1ccc(O)cc1", "read-out": "cell growth or viability", "method": "ATP luminescence", "time": "5 days", "measurement": "EC50", "result": "0.018 µM"}
{"Structure (SMILES)": "CCC(=CCc1c(O)cc2c(c1O)C(=O)CC(c1cccc(O)c1)O2)CC (stereo not drawn)", "read-out": "cytotoxicity", "method": "MTT", "concentration": "13.57 µM", "time": "48 h", "measurement": "growth inhibition", "result": "29.9%"}
{"Structure (SMILES)": "CSC(=NN=C(C)c1ccc(S(=O)(=O)N2CCC(C)CC2)cc1)N(C)C", "method": "annexin V/PI", "concentration": "concentration not given", "time": "72 h", "notes": "at IC50", "measurement": "total apoptotic cells", "result": "16.2%"}
{"Structure (SMILES)": "CC(=O)[O][Pd][c]1ccccc1-n1nc(C)cc1C.CC(=O)[O][Pd][c]1ccccc1-n1nc(C)cc1C", "method": "PI flow cytometry", "concentration": "25 µM", "time": "24 h", "measurement": "G1 phase cells", "result": "27.7 ± 3.68%"}
{"Structure (SMILES)": "CSC(=S)N/N=C(\\C)c1ccc(S(=O)(=O)N2CCC(C)CC2)cc1", "method": "flow cytometry", "concentration": "4.29 µM (IC50)", "time": "72 h", "measurement": "cells in pre-G1 phase", "result": "15.5%"}
{"Structure (SMILES)": "CC(C)C[C@@H](NC(=O)[C@H](C)NC(=O)CNC(=O)[C@@H](NC=O)C(C)C)C(=O)N[C@@H](C)C(=O)N[C@@H](C(=O)N[C@H](C(=O)N[C@@H](C(=O)N[C@@H](Cc1c[nH]c2ccccc12)C(=O)N[C@H](CC(C)C)C(=O)N[C@@H](Cc1c[nH]c2ccccc12)C(=O)N[C@H](CC(C)C)C(=O)N[C@@H](Cc1c[nH]c2ccccc12)C(=O)N[C@H](CC(C)C)C(=O)N[C@@H](Cc1c[nH]c2ccccc12)C(=O)NCCO)C(C)C)C(C)C)C(C)C", "method": "flow cytometry", "concentration": "500 nM", "time": "48 h", "measurement": "cells in S phase", "result": "9.72 ± 0.15%"}
{"Structure (SMILES)": "CCC(=CCc1c(O)cc2c(c1O)C(=O)CC(c1ccccc1O)O2)CC (stereo not drawn)", "read-out": "cytotoxicity", "method": "MTT", "concentration": "13.57 µM", "time": "48 h", "measurement": "growth inhibition", "result": "0.48%"}
{"Structure (SMILES)": "CC(=NN=c1sc(C(=O)c2ccccc2)nn1-c1ccccc1)c1ccc(S(=O)(=O)N2CCC(C)CC2)cc1", "method": "flow cytometry", "concentration": "4.29 µM (IC50)", "time": "72 h", "measurement": "cells in G0/G1 phase", "result": "35.3%"}
{"note": "A few entries again:"}
{"Structure (SMILES)": "CSC(=NN=C(C)c1ccc(S(=O)(=O)N2CCC(C)CC2)cc1)N(C)C", "method": "annexin V/PI", "concentration": "concentration not given", "time": "72 h", "notes": "at IC50", "measurement": "total apoptotic cells", "result": "16.2%"}
